Published values of several laboratories.
Parts stem from different laboratories: compare values within a part only.
UniProt Q9UKI8, sequence (whole entry, looked up): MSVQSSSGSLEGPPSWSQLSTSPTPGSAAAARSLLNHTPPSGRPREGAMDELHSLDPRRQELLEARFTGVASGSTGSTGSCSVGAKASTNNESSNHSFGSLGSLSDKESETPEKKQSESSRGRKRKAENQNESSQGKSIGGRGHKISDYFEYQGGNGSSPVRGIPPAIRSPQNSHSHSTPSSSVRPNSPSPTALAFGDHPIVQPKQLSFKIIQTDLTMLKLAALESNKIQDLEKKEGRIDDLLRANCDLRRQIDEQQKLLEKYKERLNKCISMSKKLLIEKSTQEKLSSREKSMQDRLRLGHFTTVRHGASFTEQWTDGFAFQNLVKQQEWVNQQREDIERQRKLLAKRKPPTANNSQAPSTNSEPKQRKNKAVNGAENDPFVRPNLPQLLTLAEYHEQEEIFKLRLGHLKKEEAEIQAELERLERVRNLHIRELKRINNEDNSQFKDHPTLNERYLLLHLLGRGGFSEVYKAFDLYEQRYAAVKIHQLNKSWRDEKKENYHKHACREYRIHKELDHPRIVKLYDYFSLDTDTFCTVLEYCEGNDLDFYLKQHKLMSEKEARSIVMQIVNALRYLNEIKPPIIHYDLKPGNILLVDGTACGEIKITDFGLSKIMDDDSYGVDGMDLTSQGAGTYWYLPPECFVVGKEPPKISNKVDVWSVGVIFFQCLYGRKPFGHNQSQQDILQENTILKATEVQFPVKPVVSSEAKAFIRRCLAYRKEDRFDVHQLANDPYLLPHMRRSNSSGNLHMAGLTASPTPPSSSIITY
UniProt Q13177, sequence (whole entry, looked up): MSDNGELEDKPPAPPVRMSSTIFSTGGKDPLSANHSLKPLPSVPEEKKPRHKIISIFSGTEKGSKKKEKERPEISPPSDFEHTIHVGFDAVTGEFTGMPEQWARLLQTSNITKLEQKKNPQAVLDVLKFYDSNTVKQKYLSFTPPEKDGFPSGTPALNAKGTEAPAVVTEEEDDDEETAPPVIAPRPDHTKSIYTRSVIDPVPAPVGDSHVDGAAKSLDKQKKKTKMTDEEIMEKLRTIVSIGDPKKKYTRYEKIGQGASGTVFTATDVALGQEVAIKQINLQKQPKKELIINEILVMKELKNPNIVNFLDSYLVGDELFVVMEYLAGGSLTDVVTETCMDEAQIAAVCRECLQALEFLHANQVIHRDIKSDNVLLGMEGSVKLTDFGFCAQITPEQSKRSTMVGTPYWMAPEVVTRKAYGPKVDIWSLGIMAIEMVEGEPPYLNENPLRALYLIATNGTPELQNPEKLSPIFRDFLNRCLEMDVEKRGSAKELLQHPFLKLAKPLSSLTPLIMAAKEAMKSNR
UniProt P42336, sequence (whole entry, unmodified, looked up): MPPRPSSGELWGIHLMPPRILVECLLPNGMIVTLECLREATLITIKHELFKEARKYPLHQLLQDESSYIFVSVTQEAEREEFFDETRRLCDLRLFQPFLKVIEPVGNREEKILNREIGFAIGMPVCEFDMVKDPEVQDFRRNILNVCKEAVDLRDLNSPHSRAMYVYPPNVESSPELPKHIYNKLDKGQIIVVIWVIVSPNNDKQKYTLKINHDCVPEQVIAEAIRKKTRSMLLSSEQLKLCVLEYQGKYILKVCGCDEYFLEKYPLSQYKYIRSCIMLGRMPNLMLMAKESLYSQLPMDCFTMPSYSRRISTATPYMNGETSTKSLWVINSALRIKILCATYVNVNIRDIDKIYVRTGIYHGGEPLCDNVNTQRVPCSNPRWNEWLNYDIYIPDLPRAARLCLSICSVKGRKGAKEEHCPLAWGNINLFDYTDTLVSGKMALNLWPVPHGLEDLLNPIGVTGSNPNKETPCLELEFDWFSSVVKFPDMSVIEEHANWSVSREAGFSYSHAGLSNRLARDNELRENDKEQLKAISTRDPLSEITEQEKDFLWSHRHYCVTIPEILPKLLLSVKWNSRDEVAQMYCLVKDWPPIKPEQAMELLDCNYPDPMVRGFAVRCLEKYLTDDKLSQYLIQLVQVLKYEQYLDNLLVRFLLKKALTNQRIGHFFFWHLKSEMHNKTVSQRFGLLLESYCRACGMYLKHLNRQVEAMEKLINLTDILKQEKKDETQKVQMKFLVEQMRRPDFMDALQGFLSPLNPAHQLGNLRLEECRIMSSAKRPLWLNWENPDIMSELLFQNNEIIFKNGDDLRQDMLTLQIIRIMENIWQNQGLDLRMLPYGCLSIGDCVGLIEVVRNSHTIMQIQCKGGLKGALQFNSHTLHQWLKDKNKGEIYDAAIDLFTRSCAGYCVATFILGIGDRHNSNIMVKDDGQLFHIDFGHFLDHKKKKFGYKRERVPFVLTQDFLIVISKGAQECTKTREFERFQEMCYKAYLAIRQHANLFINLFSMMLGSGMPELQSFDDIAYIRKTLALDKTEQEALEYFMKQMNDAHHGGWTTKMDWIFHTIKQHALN

Study 1
Species: human
Medium: microsomes or S9
Concentration: 2 µM
Time: 0.5 h
Measurement: remaining compound
CCn1cc(N(CC(C)C)C(=O)c2nncc3ccccc23)cn1: 91.7%
O=S1(=O)CC2Sc3ncnc4ncn(c34)C2C1 (centres unmarked): > 99%
CC(Cc1ccccc1)NC(=O)C1CCCNC1=O (centres unmarked): 83.9%
Cn1nc(C(=O)NCCn2ccc(-c3ccsc3)n2)ccc1=O: 67.5%

Study 2
Compound: CS(=O)(=O)N1CCCC(NC(=O)[C@H](CCC2CCCCC2)NC(=O)c2ccc(CNc3ncnc4c3nnn4-c3ccccc3)cc2)C1 (some centres unmarked)
Read-out: cell-free assay
Method: competition with immobilised ligand
Concentration: 0.1 µM
Measurement: remaining binding
PIK3CA (Homo sapiens, UniProt P42336, H1047Y): 100%
CDK13 (Homo sapiens, UniProt Q14004): 100%
TLK1 (Homo sapiens, UniProt Q9UKI8): 94%
PAK2 (Homo sapiens, UniProt Q13177): 100%

Study 3
Target: Misshapen-like kinase 1 (MINK1, Homo sapiens, UniProt Q8N4C8)
UniProt Q8N4C8, sequence (whole entry, looked up): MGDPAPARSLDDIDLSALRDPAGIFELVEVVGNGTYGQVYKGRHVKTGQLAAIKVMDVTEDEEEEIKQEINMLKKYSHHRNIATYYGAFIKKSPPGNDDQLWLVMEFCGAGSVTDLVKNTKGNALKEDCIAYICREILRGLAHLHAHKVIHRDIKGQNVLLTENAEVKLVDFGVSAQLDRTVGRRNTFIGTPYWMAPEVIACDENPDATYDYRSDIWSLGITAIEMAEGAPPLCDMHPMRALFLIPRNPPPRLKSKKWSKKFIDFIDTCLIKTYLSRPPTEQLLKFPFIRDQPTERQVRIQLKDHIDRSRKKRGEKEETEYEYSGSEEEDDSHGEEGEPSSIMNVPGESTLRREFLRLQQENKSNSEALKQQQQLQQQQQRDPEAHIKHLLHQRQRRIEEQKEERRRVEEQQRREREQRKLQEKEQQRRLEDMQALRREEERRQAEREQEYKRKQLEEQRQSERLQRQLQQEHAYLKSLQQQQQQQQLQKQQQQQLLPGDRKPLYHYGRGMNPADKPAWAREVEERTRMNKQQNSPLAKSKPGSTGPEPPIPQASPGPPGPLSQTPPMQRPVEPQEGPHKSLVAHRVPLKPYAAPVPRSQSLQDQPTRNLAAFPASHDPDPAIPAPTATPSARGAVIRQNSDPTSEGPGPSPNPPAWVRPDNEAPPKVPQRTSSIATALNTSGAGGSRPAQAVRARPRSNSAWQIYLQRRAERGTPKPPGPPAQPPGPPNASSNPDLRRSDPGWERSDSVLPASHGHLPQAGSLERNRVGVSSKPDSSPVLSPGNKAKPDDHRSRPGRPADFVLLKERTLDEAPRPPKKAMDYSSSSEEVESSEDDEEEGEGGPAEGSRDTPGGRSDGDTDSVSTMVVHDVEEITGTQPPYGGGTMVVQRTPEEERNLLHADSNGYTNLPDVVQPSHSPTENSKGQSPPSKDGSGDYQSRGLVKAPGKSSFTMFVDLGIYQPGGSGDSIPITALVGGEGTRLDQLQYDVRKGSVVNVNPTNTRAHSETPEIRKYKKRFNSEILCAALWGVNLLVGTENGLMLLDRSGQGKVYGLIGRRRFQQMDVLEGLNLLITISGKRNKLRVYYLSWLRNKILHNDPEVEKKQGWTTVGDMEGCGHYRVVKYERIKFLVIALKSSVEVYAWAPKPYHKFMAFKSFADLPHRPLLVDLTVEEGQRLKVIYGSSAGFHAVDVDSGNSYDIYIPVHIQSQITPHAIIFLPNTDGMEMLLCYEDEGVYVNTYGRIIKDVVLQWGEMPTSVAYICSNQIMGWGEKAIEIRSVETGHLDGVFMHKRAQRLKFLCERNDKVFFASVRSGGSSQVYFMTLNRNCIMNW
Read-out: enzyme activity
Action: inhibitor
Concentration: 0.5 µM
Baseline: control
Measurement: remaining activity
Cc1ccc(NC(=O)c2ccc(CN3CCN(C)CC3)cc2)cc1Nc1nc(-c2cccnc2)cs1: 86.7%
CC(C)[C@H](CO)Nc1nc(Nc2cc(N)cc(Cl)c2)c2ncn(C(C)C)c2n1: 94.5%
Cc1ccc(Nc2nccc(N(C)c3ccc4c(C)n(C)nc4c3)n2)cc1S(N)(=O)=O: 73.7%
C#Cc1cccc(Nc2ncnc3cc(OCCOC)c(OCCOC)cc23)c1: 85.7%
O=C(Nc1cccc(Nc2cc(Nc3cccc(C(F)(F)F)c3)ncn2)c1)C1CC1: 95.9%
O=C1NC(=O)C(c2cn(CCCn3ccnc3)c3ccccc23)=C1Nc1ccccc1: 90.1%
O=C1NC(=O)C(c2cn(CCCO)c3ncccc23)=C1c1cnccn1: 84.8%
Cc1nc(-c2ccccc2)c(-c2ccncc2)o1: 97.9%
NCCNc1ncc(C(N)=O)c(Nc2cccc(C(F)(F)F)c2)n1: 70%
Cn1c2ccccc2c2c3c(c4c5ccccc5n(CCC#N)c4c21)CNC3=O: 2.48%
CCOC(=O)c1c(C)[nH]c(/C=C2\C(=O)Nc3ccccc32)c1C: 88.9%
O=S(=O)(c1cccc2cnccc12)N1CCCNCC1: 96.6%
Oc1ccc(-c2nc(-c3ccncc3)c(-c3ccc(F)cc3)[nH]2)cc1: 102%

Study 4
Target: Sal-like protein 4, full length isoform B (SALL4, Homo sapiens, UniProt Q9UJQ4-2, residues 1-616)
Method: universal PBM
Form: double-stranded DNA, one strand shown
Medium: in vitro
Concentration: not given
Notes: 8-mer, flanks averaged, mean of replicates
Direction: higher = stronger binding
Measurement: E-score
Residues (chain): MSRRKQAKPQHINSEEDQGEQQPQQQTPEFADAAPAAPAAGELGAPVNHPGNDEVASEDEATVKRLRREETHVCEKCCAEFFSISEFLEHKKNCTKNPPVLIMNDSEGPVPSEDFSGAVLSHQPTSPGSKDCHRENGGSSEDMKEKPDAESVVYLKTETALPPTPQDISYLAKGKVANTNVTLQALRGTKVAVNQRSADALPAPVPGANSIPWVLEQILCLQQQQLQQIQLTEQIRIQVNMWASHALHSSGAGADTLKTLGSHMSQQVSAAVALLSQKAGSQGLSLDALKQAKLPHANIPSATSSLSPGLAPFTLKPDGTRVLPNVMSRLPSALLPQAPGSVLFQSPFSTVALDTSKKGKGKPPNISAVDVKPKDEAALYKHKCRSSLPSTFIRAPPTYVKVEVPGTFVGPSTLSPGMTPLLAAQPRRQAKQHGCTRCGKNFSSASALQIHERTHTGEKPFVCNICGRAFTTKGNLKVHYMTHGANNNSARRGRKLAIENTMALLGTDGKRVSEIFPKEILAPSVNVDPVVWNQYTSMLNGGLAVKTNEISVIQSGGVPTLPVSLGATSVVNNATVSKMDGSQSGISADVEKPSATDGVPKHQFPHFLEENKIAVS
CGTTTGGC: -0.0572
CAGTCACG: -0.216
CATAGGTA: 0.0877
ACACACTG: -0.141
GAGGGATC: -0.23
CAATCGAC: 0.0146
AGATCGCT: -0.027
ACAGTGAC: -0.00831
